Values quoted from earlier work, collected from citations in different studies.
“And” joins repeats or separate records; there may be more than shown. ± marks the error that the study gave. ≈ marks a conversion by molar mass, not a printed value.

SMILES | target | assay | test system | setting | how to read | measurement | result
CCOC(=O)N1CCC(c2cc(O)n3nc(C)c(-c4ccc(C(F)(F)F)cc4)c3n2)CC1 | TRPC3 | ion channel activity, agonist | – | – | – | EC50 | ~19 nM and 19 nM
COc1ccc(C(OCCN2CCCC(C(=O)O)C2)(c2ccc(OC)cc2)c2ccc(OC)cc2)cc1 (centres unmarked) | GABA transporter GAT3 and GAT1 | – | – | – | baseline: GAT1 over GAT3 IC50 | selectivity ratio | 15 to 40 fold
C[C@@H]1O[C@@H](Oc2c(-c3ccc(O)c(O)c3)oc3cc(O)cc(O)c3c2=O)[C@H](O)[C@H](O)[C@H]1O | Hedgehog/GLI1 pathway | inhibitor | – | concentration not given | – | activity | inactive
Nc1c(SC[C@H](O)[C@H](O)[C@H](O)CO)[nH]c(=O)[nH]c1=O | Bacillus subtilis lumazine synthase | enzyme kinetics | recombinant β60 capsid | pH 7.0, with: substrate 2 fixed, 1 varied | – | kcat | 0.0183 ± 0.00167 s⁻¹
CCCCCCCCCCCCCC(=O)N[C@@H](CO)C(=O)N[C@H](C(=O)N[C@@H](Cc1ccc(O)cc1)C(=O)N[C@@H](CCCNC(=N)N)C(=O)N[C@@H](CCCNC(=N)N)C(=O)NCC(=O)N[C@@H](C)C(=O)N[C@@H](CCCNC(=N)N)C(=O)N[C@@H](CCCNC(=N)N)C(=O)N[C@@H](Cc1c[nH]c2ccccc12)C(=O)N[C@@H](CCCNC(=N)N)C(=O)N[C@@H](CCCCN)C(=O)N[C@@H](CC(C)C)C(=O)O)[C@@H](C)CC | PKMζ | AMPAR responses | CA1 neurons, hippocampal slices | – | – | lowest dose blocking PKMζ potentiation | ~5 µM
Nc1nc(-c2ccc(NC(=O)c3cc(Cl)cc(Cl)c3)cc2)c[nH]1 | colistin | – | Acinetobacter baumannii, AB5075 | 30 µM, with: colistin | – | MIC | 4 µg/mL (≈ 11.5 µM)
Cc1nc(Nc2ncc(C(=O)Nc3c(C)cccc3Cl)s2)cc(N2CCN(C(=O)CCCCCCC(=O)N[C@H](C(=O)N3C[C@H](O)C[C@H]3C(=O)NCc3ccc(-c4scnc4C)cc3)C(C)(C)C)CC2)n1 | Bcr-Abl T315I | – | – | concentration not given | – | activity | inactive
O=c1[nH]c(SC[C@H](O)[C@H](O)[C@H](O)CO)c([N+](=O)[O-])c(=O)[nH]1 | Bacillus subtilis lumazine synthase | enzyme kinetics | recombinant β60 capsid | pH 7.0, with: substrate 2 fixed, 1 varied | – | kcat | 0.0217 ± 0.00167 s⁻¹
CN(C(=O)c1ccccc1)c1ccc(C(O)(C(F)(F)F)C(F)(F)F)cc1 | LXRα | agonist | – | – | – | EC50 | 400 nM
CC(C)(Oc1ccc(CCOc2ccc(/N=N/c3ccccc3)cc2)cc1)C(=O)O | PPARγ | agonist | – | – | – | EC50 | 1400 nM
NC(=O)c1ccc[n+](C2OC(COP(=O)([O-])OP(=O)(O)OCC3OC(n4cnc5c(N)ncnc54)C(O)C3O)C(O)C2O)c1 (centres unmarked) | mitochondrial complex I flavin site | – | – | – | – | dissociation rate constant | > 5000 s⁻¹
Cc1cccc(Cn2ncc3c4cc(F)c(CN(C)C)cc4n(C)c3c2=O)n1 | human recombinant PKM2 | enzyme activity, activator | – | concentration not given | – | activation | > 200%
C=CCC(=N)NCCC[C@H](N)C(=O)O | rat nNOS | – | – | 100 µM | – | inhibition | 94%
CC(C)C(=O)Nc1c(NC[C@H](O)[C@H](O)[C@H](O)CO)[nH]c(=O)[nH]c1=O | Bacillus subtilis lumazine synthase | uncompetitive inhibitor | – | pH 7.0 | – | Kis | 64 ± 11 µM
O=C(O)C1Nc2c(O)cccc2C2C=CCC12 (centres unmarked) | PRC2-EZH2 wild type | enzyme activity, inhibitor | – | concentration not given | – | inhibition | inhibited
Nc1ncnc2c1ncn2C1OC(COP(=O)(O)OP(=O)(O)OCC2OC(O)C(O)C2O)C(O)C1O (centres unmarked) | TRPM2 (human) | channel activation, agonist, inside-out patch clamp | – | with: saturating cytosolic Ca2+ | – | EC50 | 1400 nM

SMILES | target | assay | test system | setting | how to read | measurement | result
C[C@H](NC(=O)[C@@H]1CCCN1C(=O)[C@@H]1CCCN1C(=O)[C@H](C)NC(=O)[C@@H](NC(=O)[C@H](CO)NC(=O)CNC(=O)[C@@H]1CCCN1C(=O)[C@H](C)NC(=O)[C@@H]1CCCN1C(=O)[C@@H](N)CCCNC(=N)N)[C@@H](C)O)C(=O)N[C@@H](Cc1c[nH]cn1)C(=O)NCC(=O)O | 16 A monoclonal antibody | SPR | – | – | – | kon | 7210 M⁻¹ s⁻¹
c1ccc(CCCNc2ncnc3cc(OCC4CCN(CCNc5cccc6ccccc56)CC4)ccc23)cc1 | human DNMT3A catalytic domain | enzyme activity | – | 32 µM | – | inhibition | 0%
O=c1[nH]c(NC[C@H](O)[C@H](O)[C@H](O)CO)c([N+](=O)[O-])c(=O)[nH]1 | Bacillus subtilis lumazine synthase | – | recombinant β60 capsid | pH 7.0, Tris·HCl buffer, with: 2 constant, 1 varied | – | Ks | 12 ± 2 µM
O=C(Nc1c(-c2ccccc2)cnn1-c1ccccc1)c1ccc([N+](=O)[O-])cc1 | rat mGlu1 receptor | positive allosteric modulator | – | – | – | EC50 | 2400 nM
Nc1c2ncn3c2nc[n+]1[C@@H]1O[C@H](COP(=O)(O)OP(=O)([O-])OC[C@H]2O[C@@H]3[C@H](O)[C@@H]2OP(=O)(O)O)[C@@H](O)[C@H]1O | cADPR receptor | – | permeabilised Jurkat T cells | concentration not given | – | activity | inactive
COC(=O)CN(C/C=C/c1ccc(OC)c(OC)c1)Cc1ccc(F)cc1 | none | abscisic acid production | in planta | – | concentration inhibiting | effective concentration | 50 to 100 µM
CS(=O)(=O)c1ccc(-c2nc3ccccn3c2CN2CCOCC2)cc1 | cyclooxygenase-2 | – | – | – | baseline: COX-1 IC50 over COX-2 IC50 | selectivity ratio | 217
Nc1c2ncn3c2nc[n+]1[C@@H]1O[C@H](COP(=O)(O)OP(=O)([O-])OC[C@H]2O[C@@H]3C[C@@H]2O)[C@@H](O)[C@H]1O | cADPR receptor | – | permeabilised Jurkat T cells | concentration not given | – | activity | inactive
CC(=O)N[C@H]1[C@@H](O)[C@H](O)[C@@H](CO)O[C@H]1O | Staphylococcus aureus NanK | – | – | – | – | Vmax | 20.5 ± 0.18 µM min^–1
COCCNc1oc(-c2ccc(N(C)Cc3ccc(Cl)cc3)cc2)nc1C#N | REV-ERB | reporter gene, luciferase reporter | – | – | – | EC50 | 2500 nM
Nc1n[nH]c2c1c(Nc1ccc(F)cc1)nc1ccccc12 | intestinal beta-glucuronidase | – | BALB/cJ mouse | oral, dose not given, 5 consecutive days | – | inhibition | 75%
CN1CCN(C(=O)C(C)(C)c2ccc(C(=O)Nc3cn4cc(-c5ccncc5)ccc4n3)cc2)CC1 | CLK | NanoBRET | – | concentration not given | – | activity class | active
CCOC(=O)C(=O)Nc1c(NC[C@H](O)[C@H](O)[C@H](O)CO)[nH]c(=O)[nH]c1=O | Bacillus subtilis lumazine synthase | enzyme kinetics | recombinant β60 capsid | pH 7.0, with: substrate 2 fixed, 1 varied | – | kcat | 0.0417 ± 0.00167 s⁻¹
COc1cc(F)c(C(C)C)cc1C1=C(CN2C(=O)O[C@H](c3cc(C(F)(F)F)cc(C(F)(F)F)c3)[C@@H]2C)CC(C)(C)CC1 | CETP | – | cynomolgus monkey | 0.1 to 30 mg/kg, single dose | – | duration of CETP inhibition | 72 h
CNC(=O)c1ccccc1Oc1nc(Nc2cc(OC)c(OC)c(OC)c2)ncc1Br | MARK3 | – | – | 0.25 µM | – | inhibition | > 40%
COC(=O)[C@H](CC(C)C)NC(=O)[C@@H]1CCCN1C(=O)[C@@H](NC(=O)[C@H](CCC(=O)C=[N+]=[N-])NC(=O)OCc1ccccc1)C(C)C | guinea pig transglutaminase 2 | – | – | 50 µM, 30 min | – | inhibition | 95%

A few entries again:
SMILES | target | assay | test system | setting | how to read | measurement | result
CN1CCN(C(=O)C(C)(C)c2ccc(C(=O)Nc3cn4cc(-c5ccncc5)ccc4n3)cc2)CC1 | CLK | NanoBRET | – | concentration not given | – | activity class | active
C=CCC(=N)NCCC[C@H](N)C(=O)O | rat nNOS | – | – | 100 µM | – | inhibition | 94%
CCOC(=O)N1CCC(c2cc(O)n3nc(C)c(-c4ccc(C(F)(F)F)cc4)c3n2)CC1 | TRPC3 | ion channel activity, agonist | – | – | – | EC50 | ~19 nM and 19 nM
